{"data": "Measured values from different studies", "note": "Parts stem from different laboratories: compare values within a part only."}
{"data": "Block 1", "target": "RNA binding protein fox-1 homolog 2, RRM domain, GST-SBP tag (RBFOX2, Homo sapiens, UniProt O43251-10, residues 100-194)", "technique": "RNA Bind-n-Seq", "molecule type": "RNA", "matrix": "in vitro", "concentration": "365 nM", "notes": "natural RNA segment, single round, ends assumed", "reference": "no-protein control", "reading": "higher = stronger binding", "all sequences stand within": "GGGAGUUCUACAGUCCGACGAUC … UGGAAUUCUCGGGUGCCAA", "Residues (chain)": "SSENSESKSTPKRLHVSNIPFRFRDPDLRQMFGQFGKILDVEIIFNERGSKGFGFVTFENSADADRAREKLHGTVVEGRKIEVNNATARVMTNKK"}
{"Strand": "CUUUCUGAUGAUUUAAACUUUGCAGUUUACUUUUUCAUCCUGUAUGAGAAGUACUAAGUAAGUUUAGGACAUUUGGGGUUCCUUUUUCCCUUCUAAAGUGAAAGUGAUGU", "RBNS enrichment (R)": 0.304}
{"Strand": "CUUUUCUAUUUGCGUUCAAAACUGUGUGUUCUCUUUCUAUUCCUAUUUGAUAGUUUGAGUCAUGGUCUUAGAUAUUAGCUAUUUGUGAGAGGAAACUGGUUUGUAACAAU", "RBNS enrichment (R)": 0.431}
{"Strand": "AAAAAAUGGAGUGAUAUUUAAAAAUGCCAUCGAUGGUGGGGAUCUUACUGGGGAAGAGGAAGGACCAUUAGCACACCAUCAUGAUGUCAGAUGACAAAAUGGAAGCCAAG", "RBNS enrichment (R)": 0.928}
{"Strand": "GGAACUCCUAAGGAAGUCACAGGUUCACACCGUGGGGAUUUUCAGGAUAGCAUGGAGACCAGAGAAUCCCGGUUCGGUUGUUCUCACUCGGUGAGCCUUGAGAAGGAAGA", "RBNS enrichment (R)": 12.6}
{"Strand": "UAAGCCUUCUGCUUAUUCUCCUAGCACAAUGCAAGGAAAUUUUACUUUUUAAAUCUUAGAGAGAUUCCUACAGAUCUAUAAAGCAUGGAGCCAUUCCUGUAGUGAAGGGG", "RBNS enrichment (R)": 0.797}
{"Strand": "CCCUUGAGUUUUACCAGCACAAGCCAUUCUUUGCCCCUGUUCACAUAACUGAGCUCAAGCUCUUGCCAAACACCAACAAGCAAGAUGGUUGCAACCUGGCAACAUUGAAU", "RBNS enrichment (R)": 0.393}
{"data": "Block 2", "target": "Sal-like protein 4, full length isoform B (SALL4, Homo sapiens, UniProt Q9UJQ4-2, residues 1-616)", "technique": "universal PBM", "molecule type": "double-stranded DNA, one strand shown", "matrix": "in vitro", "concentration": "not given", "notes": "8-mer, flanks averaged, mean of replicates", "reading": "higher = stronger binding"}
{"Strand": "AGATCTCG", "E-score": -0.129}
{"Strand": "GGGTAAGA", "E-score": -0.045}
{"Strand": "GGGTGTTA", "E-score": -0.0173}
{"Strand": "CCATTCCG", "E-score": -0.16}
{"Strand": "AGAGGAGC", "E-score": -0.149}
{"Strand": "AACACTCG", "E-score": 0.0108}
{"data": "Block 3", "target": "Histone acetyltransferase KAT6A, both winged helices, GST fusion (KAT6A, Homo sapiens, UniProt Q92794, residues 1-181)", "technique": "protein binding microarray", "molecule type": "double-stranded DNA, one strand shown", "matrix": "in vitro", "concentration": "not given", "notes": "8-mer, flanks averaged, mean of 2 arrays, mostly near background", "reference": "not given", "reading": "higher = stronger binding", "Residues (chain)": "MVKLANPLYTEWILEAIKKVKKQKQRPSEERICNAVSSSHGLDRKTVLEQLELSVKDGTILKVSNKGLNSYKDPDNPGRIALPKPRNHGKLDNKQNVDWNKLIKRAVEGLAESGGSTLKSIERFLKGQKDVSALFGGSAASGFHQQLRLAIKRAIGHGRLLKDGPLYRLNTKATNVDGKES"}
{"Strand": "CCGCGCCC", "E-score": 0.329}
{"Strand": "GTTCTTTA", "E-score": 0.00097}
{"Strand": "GCGTGCCA", "E-score": 0.167}
{"Strand": "CCCTTCAG", "E-score": -0.221}
{"Strand": "CCAACAAG", "E-score": -0.274}
{"data": "Further values, each from its own experiment"}
{"Substance": "PhoQ, residues 284 288 289 292 302 303 TLSLKA", "target": "PhoP, residues 12 14 15 18 19 LHATL (Escherichia coli, UniProt P23836)", "test": "Sort-seq, refers to: YFP reporter", "system": "E. coli", "setting": "PhoQ-PhoP variant library, together with: 10 µM Mg2+", "scale": "reference: high Mg2+ state, higher = stronger signaling", "measurement": "fold induction", "result": 5.73}
{"note": "Some of these lines once more (block 1):"}
{"Strand": "CUUUUCUAUUUGCGUUCAAAACUGUGUGUUCUCUUUCUAUUCCUAUUUGAUAGUUUGAGUCAUGGUCUUAGAUAUUAGCUAUUUGUGAGAGGAAACUGGUUUGUAACAAU", "RBNS enrichment (R)": 0.431}
{"Strand": "AAAAAAUGGAGUGAUAUUUAAAAAUGCCAUCGAUGGUGGGGAUCUUACUGGGGAAGAGGAAGGACCAUUAGCACACCAUCAUGAUGUCAGAUGACAAAAUGGAAGCCAAG", "RBNS enrichment (R)": 0.928}
{"Strand": "GGAACUCCUAAGGAAGUCACAGGUUCACACCGUGGGGAUUUUCAGGAUAGCAUGGAGACCAGAGAAUCCCGGUUCGGUUGUUCUCACUCGGUGAGCCUUGAGAAGGAAGA", "RBNS enrichment (R)": 12.6}
